Measurements collected from several papers.
A part holds a random share of what one study measured. Values joined by “and” are separate records of one study, mostly repeats; a detail may differ.

Series 1
Cell line: A-375
Tested at: 100 µM
Time: 18 h
Measurement: viability
SMILES = CC(/C=C/C=C(\C)C(=O)O[C@@H]1O[C@H](CO[C@@H]2O[C@H](CO)[C@@H](O)[C@H](O)[C@H]2O)[C@@H](O)[C@H](O)[C@H]1O)=C\C=C\C=C(C)\C=C\C=C(/C)C(=O)O[C@@H]1O[C@H](CO[C@@H]2O[C@H](CO)[C@@H](O)[C@H](O)[C@H]2O)[C@@H](O)[C@H](O)[C@H]1O; value = 111%
SMILES = COC(=O)C1=C(C)NC(C)=C(C(=O)OCC(C)C)C1c1ccccc1[N+](=O)[O-] (stereo not shown); value = 18.1%
SMILES = Nc1cc(-c2ccncc2)c[nH]c1=O; value = 97.1%
SMILES = CC(C)OC(=O)C(C)(C)Oc1ccc(C(=O)c2ccc(Cl)cc2)cc1; value = 91.6%
SMILES = O=S(=O)(O)CCS; value = 90.8%
SMILES = CC[C@@H]1/C=C(\C)C[C@H](C)C[C@H](OC)[C@H]2O[C@@](O)(C(=O)C(=O)N3CCCC[C@H]3C(=O)O[C@H](/C(C)=C/[C@@H]3CC[C@H](Cl)[C@H](OC)C3)[C@H](C)[C@@H](O)CC1=O)[C@H](C)C[C@@H]2OC; value = 92.6%
SMILES = COc1ccccc1OCC(O)CO (stereo not shown); value = 91.7%
SMILES = CCOC(=O)[C@H](CCc1ccccc1)N[C@@H](C)C(=O)N(CC(=O)O)C1Cc2ccccc2C1; value = 70.8%
SMILES = C=C1CC[C@H](O)C/C1=C/C=C1\CCC[C@]2(C)[C@@H]([C@H](C)/C=C/[C@H](C)C(C)C)CC[C@@H]12; value = 19.5%
SMILES = O=C(Nc1ccc(Cl)cc1)c1cc(Br)ccc1O; value = 26.4%
SMILES = CC(C)(CO)[C@@H](O)C(=O)NCCCO; value = 96.7%

Series 2
Target: Serine/threonine-protein kinase haspin (HASPIN, Homo sapiens, UniProt Q8TF76)
Chain of UniProt Q8TF76 (whole entry, looked up): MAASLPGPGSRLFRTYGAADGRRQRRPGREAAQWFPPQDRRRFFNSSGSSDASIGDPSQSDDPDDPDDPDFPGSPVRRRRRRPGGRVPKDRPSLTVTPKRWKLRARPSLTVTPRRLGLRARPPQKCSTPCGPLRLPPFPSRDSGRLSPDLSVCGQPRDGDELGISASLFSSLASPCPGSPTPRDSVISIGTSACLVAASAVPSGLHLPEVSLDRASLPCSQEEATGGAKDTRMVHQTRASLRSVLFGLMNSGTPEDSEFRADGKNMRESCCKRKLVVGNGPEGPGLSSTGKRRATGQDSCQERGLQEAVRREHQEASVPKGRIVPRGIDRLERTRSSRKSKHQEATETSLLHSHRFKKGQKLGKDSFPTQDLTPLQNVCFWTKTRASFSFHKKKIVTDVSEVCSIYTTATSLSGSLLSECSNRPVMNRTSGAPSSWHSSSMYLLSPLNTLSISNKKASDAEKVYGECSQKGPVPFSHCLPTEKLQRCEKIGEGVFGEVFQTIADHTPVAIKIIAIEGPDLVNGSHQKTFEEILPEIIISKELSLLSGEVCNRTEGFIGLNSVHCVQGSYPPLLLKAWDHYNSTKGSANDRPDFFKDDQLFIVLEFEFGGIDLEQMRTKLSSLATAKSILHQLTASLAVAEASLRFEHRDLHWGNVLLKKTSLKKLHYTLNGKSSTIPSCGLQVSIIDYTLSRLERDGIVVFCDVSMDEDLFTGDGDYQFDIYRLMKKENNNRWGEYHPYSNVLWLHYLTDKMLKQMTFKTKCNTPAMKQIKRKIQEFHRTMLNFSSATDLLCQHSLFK
Observed: enzyme activity
Action: inhibitor
Tested at: 0.5 µM
Baseline: control
Measurement: remaining activity
Structure (SMILES) = CCN(CC)CCCCN1c2ccccc2Oc2ccc(Cl)cc21; value = 104%
Structure (SMILES) = CC(C)N(CCC(=O)c1ccc2ccccc2c1)Cc1ccccc1; value = 95.6%
Structure (SMILES) = N#C/C(=C(/N)SC1C=CC=CC1)c1cccc(C(O)c2ccncc2)c1 (stereo not shown); value = 94.7%
Structure (SMILES) = O=C(c1ccccc1)c1ccc(N2CCOCC2)cc1O; value = 98.5%
Structure (SMILES) = O=C1c2ccccc2-c2nc3nnnn3nc21; value = 79.2%
Structure (SMILES) = CNc1cc2c(Nc3cccc(Br)c3)ncnc2cn1; value = 91.8%
Structure (SMILES) = O=C1NC(=O)/C(=C/c2ccc3c(c2)OC(F)(F)O3)S1; value = 96.7%
Structure (SMILES) = Clc1ccc(Nc2nnc(Cc3ccncc3)c3ccccc23)cc1; value = 70%
Structure (SMILES) = COc1cc2c(Nc3ccc(Br)cc3F)ncnc2cc1OCC1CCN(C)CC1; value = 92.6%
Structure (SMILES) = NC(=O)c1ccc(-c2nc(-c3ccc4c(c3)OCCO4)c(-c3ccccn3)[nH]2)cc1; value = 86%
Structure (SMILES) = COc1cc2c(N3CCN(C(=O)Nc4ccc(OC(C)C)cc4)CC3)ncnc2cc1OCCCN1CCCCC1; value = 99.5%
Structure (SMILES) = NC(=O)c1cccc(-c2cc(Nc3ccc(OC(F)(F)F)cc3)ncn2)c1; value = 105%

Series 3
Cell line: normal organoid sample D
Method: CellTiter-Glo
Species: human
Tested at: 1 µM
Time: 4 days
Baseline: DMSO
Measurement: viability
Compound = C[C@H](c1ccc(F)cc1)N(Cc1cccc(C(=O)O)c1)C(=O)c1cnc2ccccc2c1; value = 88.9% and 106%
Compound = O=C(Nc1cccnn1)N1CCC(=Cc2cccc(Oc3ccc(C(F)(F)F)cn3)c2)CC1; value = 83% and 95.4%
Compound = C[C@H](NC(=O)c1cnc2n1[C@](C)(Cc1ccc(C#N)cc1)C(=O)N2c1cc(Cl)c(F)c(Cl)c1)C(=O)NC1(c2ccccn2)CC1; value = 102% and 94.8%
Compound = Cc1c(NC(=O)c2cc(C(N)=O)nc3cc(F)ccc23)c(C(F)(F)F)nn1Cc1ccc(C#N)cc1; value = 22.7% and 29.2%

Further values, each from its own experiment
Compound = CC(=O)N[C@@H](Cc1c[nH]c2ccccc12)C(=O)N[C@@H](CCC(=O)C=[N+]=[N-])C(=O)OC(C)C; assay = UPLC-MS/MS; test system = EL4 tumor, C57BL/6 CES1-/- mice, tumor; setting = subcutaneous, 0.3 mg/kg DON equivalent daily, 5 days; scale = higher = more metabolite; measurement = stachydrine level; value = 1.81e+07 a.u. and 1.62e+07 a.u. and 1.97e+07 a.u. and 2.13e+07 a.u. and 1.53e+07 a.u. and 2.18e+07 a.u.

Repeated from above (series 3):
Compound = C[C@H](NC(=O)c1cnc2n1[C@](C)(Cc1ccc(C#N)cc1)C(=O)N2c1cc(Cl)c(F)c(Cl)c1)C(=O)NC1(c2ccccn2)CC1; value = 102% and 94.8%
Compound = O=C(Nc1cccnn1)N1CCC(=Cc2cccc(Oc3ccc(C(F)(F)F)cn3)c2)CC1; value = 83% and 95.4%
Compound = C[C@H](c1ccc(F)cc1)N(Cc1cccc(C(=O)O)c1)C(=O)c1cnc2ccccc2c1; value = 88.9% and 106%
